Measured values of several laboratories.
Several values in a cell are separate wells, animals, samples, runs or records. Numbers after ± are the reported error.
HTR2A: 5-hydroxytryptamine receptor 2A (HTR2A, Homo sapiens, UniProt P28223)
UniProt P28223, sequence (whole entry, looked up): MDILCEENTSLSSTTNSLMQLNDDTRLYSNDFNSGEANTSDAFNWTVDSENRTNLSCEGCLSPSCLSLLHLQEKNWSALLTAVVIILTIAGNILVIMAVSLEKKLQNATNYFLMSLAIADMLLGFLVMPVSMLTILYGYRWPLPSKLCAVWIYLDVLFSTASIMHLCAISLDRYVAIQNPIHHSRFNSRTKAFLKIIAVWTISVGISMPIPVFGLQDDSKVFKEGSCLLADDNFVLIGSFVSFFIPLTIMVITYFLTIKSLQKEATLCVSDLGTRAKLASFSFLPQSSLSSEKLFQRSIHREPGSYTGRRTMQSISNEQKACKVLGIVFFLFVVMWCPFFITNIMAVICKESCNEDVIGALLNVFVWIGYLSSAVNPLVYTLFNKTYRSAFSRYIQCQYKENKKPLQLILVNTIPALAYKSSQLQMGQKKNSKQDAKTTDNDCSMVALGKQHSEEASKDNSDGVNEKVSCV
MIF: Macrophage migration inhibitory factor (MIF, Homo sapiens, UniProt P14174)
UniProt P14174, sequence (whole entry, looked up): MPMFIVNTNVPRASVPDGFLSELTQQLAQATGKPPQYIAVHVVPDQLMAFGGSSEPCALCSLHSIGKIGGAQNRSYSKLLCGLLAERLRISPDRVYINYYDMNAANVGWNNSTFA
ESR2: Estrogen receptor beta (ESR2, Homo sapiens, UniProt Q92731)
UniProt Q92731, sequence (whole entry, looked up): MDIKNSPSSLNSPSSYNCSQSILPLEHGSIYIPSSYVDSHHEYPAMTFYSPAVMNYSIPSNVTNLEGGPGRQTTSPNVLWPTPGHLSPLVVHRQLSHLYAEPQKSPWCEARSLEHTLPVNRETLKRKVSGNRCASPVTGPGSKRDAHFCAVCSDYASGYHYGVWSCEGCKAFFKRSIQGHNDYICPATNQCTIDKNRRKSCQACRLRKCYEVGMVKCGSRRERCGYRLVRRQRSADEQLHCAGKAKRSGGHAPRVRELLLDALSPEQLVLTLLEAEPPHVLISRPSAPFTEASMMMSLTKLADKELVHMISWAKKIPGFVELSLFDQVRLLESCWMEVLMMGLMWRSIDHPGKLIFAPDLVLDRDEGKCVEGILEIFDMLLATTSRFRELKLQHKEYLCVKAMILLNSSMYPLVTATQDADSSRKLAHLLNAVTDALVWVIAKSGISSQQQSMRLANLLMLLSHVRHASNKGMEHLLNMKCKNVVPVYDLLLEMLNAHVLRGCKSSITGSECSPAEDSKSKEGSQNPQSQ
GPR84: G-protein coupled receptor 84 (GPR84, Homo sapiens, UniProt Q9NQS5)
UniProt Q9NQS5, sequence (whole entry, looked up): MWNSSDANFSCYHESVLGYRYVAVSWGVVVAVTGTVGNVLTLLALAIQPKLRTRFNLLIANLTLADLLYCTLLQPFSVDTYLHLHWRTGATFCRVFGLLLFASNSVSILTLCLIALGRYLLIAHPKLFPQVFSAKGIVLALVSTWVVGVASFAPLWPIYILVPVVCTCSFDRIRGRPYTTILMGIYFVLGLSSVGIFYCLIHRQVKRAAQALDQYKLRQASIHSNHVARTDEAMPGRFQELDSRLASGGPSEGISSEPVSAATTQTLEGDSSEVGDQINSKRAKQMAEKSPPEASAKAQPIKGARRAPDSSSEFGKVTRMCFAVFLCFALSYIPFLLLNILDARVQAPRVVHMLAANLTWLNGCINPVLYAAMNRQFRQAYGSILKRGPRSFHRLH
UniProt P43681, sequence (whole entry, looked up): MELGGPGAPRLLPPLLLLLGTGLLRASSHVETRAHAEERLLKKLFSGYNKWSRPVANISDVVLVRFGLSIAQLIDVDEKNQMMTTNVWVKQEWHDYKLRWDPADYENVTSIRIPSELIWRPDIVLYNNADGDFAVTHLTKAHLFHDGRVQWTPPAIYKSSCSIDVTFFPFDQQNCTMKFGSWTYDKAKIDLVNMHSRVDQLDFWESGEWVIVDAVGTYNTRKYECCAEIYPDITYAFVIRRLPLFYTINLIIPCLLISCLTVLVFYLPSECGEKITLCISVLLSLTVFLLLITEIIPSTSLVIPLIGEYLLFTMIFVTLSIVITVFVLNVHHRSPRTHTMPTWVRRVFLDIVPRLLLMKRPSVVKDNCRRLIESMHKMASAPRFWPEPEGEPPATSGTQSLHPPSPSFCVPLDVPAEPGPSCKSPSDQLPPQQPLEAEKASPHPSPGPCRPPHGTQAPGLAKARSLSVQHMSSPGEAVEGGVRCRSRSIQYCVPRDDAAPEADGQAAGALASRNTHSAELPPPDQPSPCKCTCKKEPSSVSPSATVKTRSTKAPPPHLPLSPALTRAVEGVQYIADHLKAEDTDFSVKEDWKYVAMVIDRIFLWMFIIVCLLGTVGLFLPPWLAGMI
UniProt P17787, sequence (whole entry, looked up): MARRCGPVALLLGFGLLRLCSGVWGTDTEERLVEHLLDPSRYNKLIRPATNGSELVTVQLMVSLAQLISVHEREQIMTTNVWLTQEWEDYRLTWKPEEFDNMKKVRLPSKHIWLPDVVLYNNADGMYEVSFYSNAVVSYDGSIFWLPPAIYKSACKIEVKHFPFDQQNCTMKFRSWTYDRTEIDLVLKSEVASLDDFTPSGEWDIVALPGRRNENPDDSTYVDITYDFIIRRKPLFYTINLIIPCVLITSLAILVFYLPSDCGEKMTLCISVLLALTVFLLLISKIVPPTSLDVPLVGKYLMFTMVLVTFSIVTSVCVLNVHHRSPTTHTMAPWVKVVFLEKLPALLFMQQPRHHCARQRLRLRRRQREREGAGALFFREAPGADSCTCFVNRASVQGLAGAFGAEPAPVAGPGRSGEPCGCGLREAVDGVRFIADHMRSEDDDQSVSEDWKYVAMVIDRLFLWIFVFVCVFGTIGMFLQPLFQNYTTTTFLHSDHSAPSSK
UniProt Q96GD4, sequence (whole entry, looked up): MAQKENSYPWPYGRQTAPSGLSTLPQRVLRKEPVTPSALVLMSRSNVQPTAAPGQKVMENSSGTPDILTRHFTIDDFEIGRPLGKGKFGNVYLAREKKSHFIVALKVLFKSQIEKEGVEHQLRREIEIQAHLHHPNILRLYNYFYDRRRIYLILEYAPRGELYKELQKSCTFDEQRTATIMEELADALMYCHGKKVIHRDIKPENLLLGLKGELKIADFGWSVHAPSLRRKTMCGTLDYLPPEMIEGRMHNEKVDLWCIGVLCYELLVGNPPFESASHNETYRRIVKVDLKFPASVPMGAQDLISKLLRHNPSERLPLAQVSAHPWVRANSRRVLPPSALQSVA
UniProt P34995, sequence (whole entry, unmodified, looked up): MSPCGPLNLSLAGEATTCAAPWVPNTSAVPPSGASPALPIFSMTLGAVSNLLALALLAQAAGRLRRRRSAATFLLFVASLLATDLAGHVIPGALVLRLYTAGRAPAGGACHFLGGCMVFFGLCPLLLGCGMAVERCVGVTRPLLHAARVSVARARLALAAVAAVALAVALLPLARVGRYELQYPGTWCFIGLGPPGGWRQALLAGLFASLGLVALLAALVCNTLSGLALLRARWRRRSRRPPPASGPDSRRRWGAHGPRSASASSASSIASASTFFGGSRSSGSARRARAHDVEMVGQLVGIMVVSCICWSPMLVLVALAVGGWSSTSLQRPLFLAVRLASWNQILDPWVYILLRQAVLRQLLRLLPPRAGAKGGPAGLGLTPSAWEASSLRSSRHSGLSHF
UniProt Q8N884, sequence (whole entry, looked up): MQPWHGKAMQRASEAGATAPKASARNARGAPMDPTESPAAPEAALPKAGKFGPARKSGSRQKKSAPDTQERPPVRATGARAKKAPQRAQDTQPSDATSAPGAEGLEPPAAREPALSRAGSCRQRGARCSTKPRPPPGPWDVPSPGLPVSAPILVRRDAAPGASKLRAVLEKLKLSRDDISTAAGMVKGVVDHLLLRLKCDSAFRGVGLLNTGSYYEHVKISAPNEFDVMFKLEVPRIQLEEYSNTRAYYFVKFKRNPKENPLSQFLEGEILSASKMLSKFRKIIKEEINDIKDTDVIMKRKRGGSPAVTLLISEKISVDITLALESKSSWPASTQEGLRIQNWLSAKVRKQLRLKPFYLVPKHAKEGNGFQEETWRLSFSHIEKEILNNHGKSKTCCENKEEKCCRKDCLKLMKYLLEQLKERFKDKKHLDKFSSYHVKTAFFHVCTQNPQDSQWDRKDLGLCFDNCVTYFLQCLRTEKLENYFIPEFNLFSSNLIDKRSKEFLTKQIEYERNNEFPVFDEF
UniProt Q9JMA9, sequence (whole entry, looked up): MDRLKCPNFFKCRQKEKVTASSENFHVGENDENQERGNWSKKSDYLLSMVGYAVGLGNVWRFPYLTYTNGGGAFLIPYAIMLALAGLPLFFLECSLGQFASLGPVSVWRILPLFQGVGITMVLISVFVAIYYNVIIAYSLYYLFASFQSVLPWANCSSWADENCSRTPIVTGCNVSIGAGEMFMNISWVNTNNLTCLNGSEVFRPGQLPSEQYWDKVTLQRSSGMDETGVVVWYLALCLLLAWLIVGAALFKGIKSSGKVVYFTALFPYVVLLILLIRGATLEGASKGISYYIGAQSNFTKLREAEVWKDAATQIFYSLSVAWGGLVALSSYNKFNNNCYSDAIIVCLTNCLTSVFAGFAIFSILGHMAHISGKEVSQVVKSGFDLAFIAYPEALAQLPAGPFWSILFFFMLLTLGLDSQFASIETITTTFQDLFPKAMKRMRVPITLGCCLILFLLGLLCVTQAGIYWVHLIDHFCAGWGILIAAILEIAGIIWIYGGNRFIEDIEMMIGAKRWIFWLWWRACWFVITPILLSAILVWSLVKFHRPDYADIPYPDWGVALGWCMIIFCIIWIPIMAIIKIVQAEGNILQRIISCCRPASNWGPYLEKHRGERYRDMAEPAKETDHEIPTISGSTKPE
UniProt Q92633, sequence (whole entry, unmodified, looked up): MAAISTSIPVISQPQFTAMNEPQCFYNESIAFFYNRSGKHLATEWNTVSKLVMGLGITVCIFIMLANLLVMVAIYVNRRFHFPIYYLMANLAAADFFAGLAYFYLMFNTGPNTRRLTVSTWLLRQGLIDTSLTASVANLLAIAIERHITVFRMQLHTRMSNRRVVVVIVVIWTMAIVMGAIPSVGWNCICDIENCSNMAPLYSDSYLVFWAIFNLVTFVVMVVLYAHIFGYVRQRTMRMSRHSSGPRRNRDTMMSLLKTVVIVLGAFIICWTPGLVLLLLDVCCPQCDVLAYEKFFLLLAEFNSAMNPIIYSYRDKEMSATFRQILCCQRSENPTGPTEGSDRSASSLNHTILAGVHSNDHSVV

SMILES | target | assay | test system | setting | how to read | EC50
CCn1c(-c2nc3ccc(C(=O)N4CCCC(N)C4)cc3n2C)cc2ccccc21 (stereo not drawn) | HTR2A | intracellular calcium, agonist, luminescence |  |  |  | > 39800 nM
COc1ccc(N2Cc3ccc(O)cc3OC2=O)cc1OC | MIF | binding, competitive inhibitor, fluorescent indicator displacement | biochemical | 10 min, MIF 100 nM, with: 7-hydroxycoumarin indicator 50 nM |  | 316 ± 34 nM
Clc1cccc(Cl)c1CSc1nnc(-c2cnccn2)s1 | Piezo-type mechanosensitive ion channel component 1 (Piezo1, Mus musculus, UniProt E2JF22) | agonist |  |  |  | 18400 ± 8800 nM
COc1cc(C2Oc3ccc([C@H]4Oc5cc(O)cc(O)c5C(=O)[C@@H]4O)cc3OC2CO)ccc1O (stereo partly drawn) | ESR2 | array formation, agonist | GFP-ERβ PRL-HeLa | 1 h |  | 1100 nM
O=C(NCc1cn(-c2ccc(O)c(F)c2)nn1)c1cc2cc(Cl)ccc2[nH]1 | MIF | binding, competitive inhibitor, fluorescent indicator displacement | biochemical | 10 min, MIF 100 nM, with: 7-hydroxycoumarin indicator 50 nM |  | 4300 ± 400 nM
CCOc1ccc(NC(=O)O[C@@H](Cn2nc(C(C)C)cc2C(C)C)C(C)C)cc1 | Neuronal acetylcholine receptor; alpha4/beta2, (α4)2(β2)3 stoichiometry (Homo sapiens, UniProt P17787+P43681) | ACh-evoked current, positive allosteric modulator, two-electrode voltage clamp |  | high-sensitivity stoichiometry, with: ACh 3 µM |  | 1000 nM and ~1000 nM
CCCCCCN(C)c1cc(=O)[nH]c(=O)[nH]1 | GPR84 | agonist |  |  |  | 4170 nM
C#Cc1ccc(-c2ccc(C(=O)N[C@@H](CCCN=C(N)CCl)c3nc4ccccc4[nH]3)cc2)cc1 | Stimulator of interferon genes protein (STING1, Homo sapiens, UniProt Q86WV6, G230A/H232R/R293Q/R71H) | IRF reporter gene, inhibitor | THP-1 Dual | with: diABZI |  | 800 nM
CCn1c(-c2nc3cc(C(=O)N4CCC[C@@H](N)C4)cc(OC)c3n2C)cc2cccnc21 | HTR2A | intracellular calcium, agonist, luminescence |  |  |  | > 39800 nM
O=C(/C=C/c1ccccc1)c1ccccc1 | ESR2 | array formation, agonist | GFP-ERβ PRL-HeLa | 1 h |  | 696 nM
CCc1oc2c([C@H](CO)N(CC)CC)cccc2c1C | Lysophosphatidic acid receptor 1 (LPAR1, Homo sapiens, UniProt Q92633, W210A) | Gi activation, agonist, NanoBiT G-protein dissociation | HEK293T | W210A mutant |  | 6.76 nM
Cc1nn(-c2nc3c(F)cc(F)cc3s2)c(O)c1C(c1ccccc1C(=O)O)c1c(C)nn(-c2nc3c(F)cc(F)cc3s2)c1O | Cyclic GMP-AMP synthase, catalytic domain; with DNA (CGAS, Homo sapiens, UniProt Q8N884) | cGAS-DNA phase separation, inhibitor |  |  |  | 1220 nM
Oc1cc(O)c2c(c1)O[C@H](c1cc(O)c(O)c(O)c1)[C@@H](O)C2 | ESR2 | array formation, agonist | GFP-ERβ PRL-HeLa | 1 h |  | 5350 nM
CCCCCNc1cc(=O)[nH]c(=O)[nH]1 | GPR84 | cAMP |  |  |  | 457 nM
O=C(NCc1cn(-c2ccc(O)c(F)c2)nn1)c1cc2ccccc2[nH]1 | MIF | binding, competitive inhibitor, fluorescent indicator displacement | biochemical | 10 min, MIF 100 nM, with: 7-hydroxycoumarin indicator 50 nM |  | 12900 ± 1000 nM
CC1(C)C=Cc2c(ccc3c2OC[C@@H](c2ccc(O)cc2O)C3)O1 | ESR2 | array formation, agonist | GFP-ERβ PRL-HeLa | 1 h |  | 1990 nM
N[C@@H](CCC(=O)O)C(=O)O | uncharacterized protein (Ixodes scapularis, UniProt A0A0N9E2I2) | ion current, agonist, two-electrode voltage clamp | Xenopus oocytes | holding potential -80 mV | relative to: 1 mM compound response | 230000 nM
CCCCCCNc1[nH]c(=O)[nH]c(=O)c1N=O | GPR84 | cAMP level, agonist | human cells |  |  | 7730 ± 540 nM
O=c1c(-c2ccc(O)cc2)coc2cc(O[C@@H]3O[C@H](CO)[C@@H](O)[C@H](O)[C@H]3O)cc(O)c12 | ESR2 | array formation, agonist | GFP-ERβ PRL-HeLa | 1 h |  | 782 nM
Oc1cc(NCCc2ccccc2)nc(O)n1 | GPR84 | agonist |  |  |  | 1620 nM
COc1ccc(-c2cc(=O)c3c(O)c(OC)c(OC)c(OC)c3o2)cc1OC | ESR2 | array formation, agonist | GFP-ERβ PRL-HeLa | 1 h |  | 2140 nM
CCCCC[C@H](O)/C=C/[C@H]1[C@H](O)CC(=O)[C@@H]1C/C=C\CCCC(=O)O | Prostaglandin E2 receptor EP1 subtype (PTGER1, Homo sapiens, UniProt P34995, R355A) | IP1 accumulation, agonist | AD293 | EP1 R355A mutant |  | 9.84 nM
O=c1cc(NCCc2cccc(Br)c2)[nH]c(=O)[nH]1 | GPR84 | cAMP level, agonist | human cells |  |  | 63.9 ± 4.7 nM
NCC(=O)O | Sodium- and chloride-dependent neutral and basic amino acid transporter B(0+) (Slc6a14, Mus musculus, UniProt Q9JMA9) | transport current, substrate, two-electrode voltage clamp | Xenopus oocytes | holding potential -40 mV |  | 189000 ± 5600 nM
CCCCCCCCNc1[nH]c(=O)[nH]c(=O)c1N=O | GPR84 | agonist |  |  |  | 417 nM
COc1cc(Nc2ncc3c(n2)-c2ccc(Cl)cc2C(c2c(F)cccc2OC)=NC3)ccc1C(=O)NCCOCCOCCNC(=O)COc1cccc2c1C(=O)N(C1CCC(=O)NC1=O)C2=O (stereo not drawn) | Aurora kinase B (AURKB, Homo sapiens, UniProt Q96GD4) | binding, kinobead competition | MV4-11 cell lysate |  |  | 12600 nM
O=Nc1c(NCCCc2ccccc2)[nH]c(=O)[nH]c1=O | GPR84 | cAMP level, agonist | human cells |  |  | 1530 ± 110 nM
COc1ccc(-c2oc3c(CC=C(C)C)c(O[C@@H]4O[C@H](CO)[C@@H](O)[C@H](O)[C@H]4O)cc(O)c3c(=O)c2O[C@@H]2O[C@@H](C)[C@H](O)[C@@H](O)[C@H]2O)cc1 | ESR2 | array formation, agonist | GFP-ERβ PRL-HeLa | 1 h |  | 1610 nM
Cc1cccc(CCNc2cc(=O)[nH]c(=O)[nH]2)c1 | GPR84 | agonist |  |  |  | 782 ± 220 nM
COc1ccc(-c2oc3cc(O)cc(O)c3c(=O)c2O)cc1 | ESR2 | array formation, agonist | GFP-ERβ PRL-HeLa | 1 h |  | 744 nM

Repeated from above:
SMILES | target | assay | test system | setting | how to read | EC50
CCOc1ccc(NC(=O)O[C@@H](Cn2nc(C(C)C)cc2C(C)C)C(C)C)cc1 | Neuronal acetylcholine receptor; alpha4/beta2, (α4)2(β2)3 stoichiometry (Homo sapiens, UniProt P17787+P43681) | ACh-evoked current, positive allosteric modulator, two-electrode voltage clamp |  | high-sensitivity stoichiometry, with: ACh 3 µM |  | 1000 nM and ~1000 nM
CCCCCCCCNc1[nH]c(=O)[nH]c(=O)c1N=O | GPR84 | agonist |  |  |  | 417 nM
COc1cc(C2Oc3ccc([C@H]4Oc5cc(O)cc(O)c5C(=O)[C@@H]4O)cc3OC2CO)ccc1O (stereo partly drawn) | ESR2 | array formation, agonist | GFP-ERβ PRL-HeLa | 1 h |  | 1100 nM
